Measured values gathered from unrelated publications.
Parts stem from different laboratories: compare values within a part only.

Series 1
Target: Sal-like protein 4, full length isoform B (SALL4, Homo sapiens, UniProt Q9UJQ4-2, residues 1-616)
Technique: universal PBM
Form: double-stranded DNA, one strand shown
Matrix: in vitro
Concentration: not given
Setting: 8-mer, flanks averaged, mean of replicates
Direction: higher = stronger binding
Endpoint: E-score
GAGGCTCC: -0.237
AATCTCTC: 0.064
CCGTTGAG: -0.0863
CTTTTGCC: 0.0697
AGTGTGGA: 0.106
CGAGTCTA: -0.0828
GGTAGTGA: -0.112
ACCAAGCC: -0.059
CCCGTCAA: -0.122
AAATCGAG: 0.0752
CCATTTAC: 0.00119
TCGTAAAA: 0.328
GAATTTAC: 0.244
CCAATTGC: -0.0223
ATCGACGC: -0.032
AATGCAAT: 0.267
CTGGCGAA: -0.199
GGGCGACC: -0.369
ATCGTTGG: 0.197
AAATTCTT: 0.204
CGAGACCA: -0.0696
AGAGGACT: -0.0537

Series 2
Target: RING finger protein unkempt homolog, zinc fingers 1-6, GST-SBP tag (UNK, Homo sapiens, UniProt Q9C0B0, residues 30-357)
UniProt Q9C0B0, sequence (30-357, looked up): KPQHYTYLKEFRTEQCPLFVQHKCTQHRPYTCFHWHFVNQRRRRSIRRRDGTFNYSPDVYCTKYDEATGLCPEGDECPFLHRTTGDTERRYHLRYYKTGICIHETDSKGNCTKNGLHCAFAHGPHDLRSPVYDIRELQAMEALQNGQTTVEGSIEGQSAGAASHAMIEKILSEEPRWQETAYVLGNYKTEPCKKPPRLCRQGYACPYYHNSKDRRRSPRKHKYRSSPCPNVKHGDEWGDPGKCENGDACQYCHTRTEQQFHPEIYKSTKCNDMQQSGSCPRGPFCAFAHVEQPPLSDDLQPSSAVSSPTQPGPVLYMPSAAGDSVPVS
Technique: RNA Bind-n-Seq
Form: RNA
Matrix: in vitro
Concentration: not given
Setting: RNA with constant flanks, human-mouse chimeric sites, ends assumed
Reference: input RNA pool
Direction: higher = stronger binding
Endpoint: bound/input enrichment
All sequences stand within: GGGAGUUCUACAGUCCGACGAUC … CAACAGAGGAUUGAGCAUCA
CUGGCACUCUAUCAGAUAUAUUAAUUUUUUAAUGUAGAUGUAAUUUUAAAAAUGAAUGGCUACUUUACGUGAUAGAUUAGGCUCUUACUAUAUAUGUGUACAUAUGUAUAUAUAUAUAUA: 2.31 ratio
GGCUGCUGGUGACUGUCGGGAGCCGUCUGGAGUUCCCGCCGGAGCGCGCGCAGGUUAAUUUUAGAAAAUGCCAAGUAGGAAGUUUGUUGAGGGUGAAGUGGUCAGAGGCCGAUGGCCUGG: 3.88 ratio
CAGGGCAUCAUCUCUCGAGCUGUUAAACACCUGUUCAAGAGUAUUGAUGAGAAAAAGACCUCAGCGAUUAAAAACGGGCUGCCCCCUCCAGAUUUUAAAGUGAAUGCCCAGUUCCUAGAG: 0.504 ratio
AACAUUUUGUCAAAUUGUUAUGUUCCUGUGAAACAAGUGAACACUCUGAUACACUUCAUCUGCUUGUACAUCUGUAUGAUAGAGAAAUGUAAAUAUGUUAAUCCAAGAUGAAUUCAACUU: 0.189 ratio
GAAACAUUUAAAUUUAAAGAAGCUGUUGUUUUAGGGAGUACGGACUUUCUAGAAGAUGAUAUAGAGAAAAUUGUAGAAGAACUGGGGAAAGAAUACAAGGGCAACGCCUACCAUCUGAUG: 2.2 ratio
AUAGAUGAAAUUGAUGUGGACCAGGAAGGAAUUGCUGAAAUGAUGCUGGAUGAAAAUGCUAUUGCUCAAGUUCCACGCCCUGGCACAUCUUUGAAGCUCCCUGGCACUAACCAAACAGGA: 0.22 ratio
GGAAGUACAAUGAUGGAGAUUGAUGGUGAUAAAGGCAAGCAGGGCGGGCCCACCUACUACAUAGACACCAAUGCCCUCCGCGUGCCCAGGGAGAACAUGGAGGCCAUUUCACCUCUAAAG: 0.289 ratio
UAACCACAUCAAGAUGGUUGGAAAGCUGAAGCAGAACUUACUCUUGGCAUGUCUGGUGAUUAGUUCUGUGACCGUGUUUUACCUGGGCCAGCAUGCCAUGGAGUGCCAUCACCGAAUAGA: 0.251 ratio

Series 3
Target: RNA binding protein fox-1 homolog 2, RRM domain, GST-SBP tag (RBFOX2, Homo sapiens, UniProt O43251-10, residues 100-194)
Technique: RNA Bind-n-Seq
Form: RNA
Matrix: in vitro
Concentration: 365 nM
Setting: natural RNA segment, single round, ends assumed
Reference: no-protein control
Direction: higher = stronger binding
Endpoint: RBNS enrichment (R)
All sequences stand within: GGGAGUUCUACAGUCCGACGAUC … UGGAAUUCUCGGGUGCCAA
Residues (chain): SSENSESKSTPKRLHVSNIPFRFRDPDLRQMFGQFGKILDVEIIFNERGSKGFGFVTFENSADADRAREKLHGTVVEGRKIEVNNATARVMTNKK
CCGCUUCCCCCUCCAACCCACAGCCUUUGCUUCCAGGUGGCAGGAUUACUACUUUGCCUCUUCAGCAGCAUCUACUCUAGGCAUAUUGAUCAUUUUAGACACUGGGAGAA: 1.88
CCAGUUCCCUCUCCAAUGUCCGGUGCCAUCUUUCCUGACCUUUGUUUCUUUCUGUUCAGGAACCAUCAGUCCCCUUGUAAUAAAGGUGGUAGAUUUCAUUGAGGUUUUAG: 0.454
CACUACCCUCUCCUACCAUCUUCCUGGGAAUGUGGCCUACCACUACCAGAGCUCCUGCCUACCAAGACUGGAUGAAAGAAGCAGCUUUGAUGGGGUCUUUCCAUCCUCAC: 0.647
AACAGAUGAAACUUUUUGCAUCGCUUGAGUCAUUUUUAUCACAAUAAUCCUACUGUGAAGCUGUCGUUGAGAACUUAGGUUGGCACGUAGCGUCUCAAGGUAUGCGUUCU: 1.04
CAAAAAUCAGCUUUUGCAGGUCUUUAUUUCUUCUGUAAAACAGUAGGUAACUUUUCCUAGGUUUCACUCUUUUUAGUGUACUAGAUCCAGAAACUUAGUGUAAUGCCCUG: 0.286
GUCUUAGGCUCAUUUGUUCCUUACCAUUUUGUCGAGGUUUUUUGGGGGGUAGUGACAGAAUCCCUGGAAGAGUCUUGAGCCACUUCCUGCUGGGGUUUCUAGUAAAGUCU: 0.807
GGGAAAGCUGGAUCCCUCUGGCUGACUUAGAGUACUGUGACUUGGGCAUUGCUAAUGCCAGCGUGGGGCUUGCUUGUUUGGGGAGUGGGCUAAGUGGGUGUAGGGGUGGA: 1.73
CAGGAGAAUUGCUUGAACUCAGAAGGCGGAGGCUGCAGUGAGCCGAGAUCGUGCCACUGCACUCCAGCCUGGUCAACAGAGCAAGACUCCAUCUCGAAGAAAAAAAAAAA: 0.33

Series 4
Target: Interferon regulatory factor 7, full length, phosphomimetic (IRF7, Homo sapiens, UniProt Q92985, residues 1-503, S101K/S471D/S472D/S475D/S476D/S477D/S483D/S484D/S487D)
Technique: protein-binding microarray
Form: double-stranded DNA, one strand shown
Matrix: in vitro
Concentration: 250 nM
Setting: 60-bp whole probe
Added: salmon DNA 0.4 mg/ml
Reference: random background probes
Direction: higher = stronger binding
Endpoint: log fluorescence
All sequences stand within: GCCTAGCAC … GTCTTGATTCGCTTGACGCTGCTG
Target sequence (chain): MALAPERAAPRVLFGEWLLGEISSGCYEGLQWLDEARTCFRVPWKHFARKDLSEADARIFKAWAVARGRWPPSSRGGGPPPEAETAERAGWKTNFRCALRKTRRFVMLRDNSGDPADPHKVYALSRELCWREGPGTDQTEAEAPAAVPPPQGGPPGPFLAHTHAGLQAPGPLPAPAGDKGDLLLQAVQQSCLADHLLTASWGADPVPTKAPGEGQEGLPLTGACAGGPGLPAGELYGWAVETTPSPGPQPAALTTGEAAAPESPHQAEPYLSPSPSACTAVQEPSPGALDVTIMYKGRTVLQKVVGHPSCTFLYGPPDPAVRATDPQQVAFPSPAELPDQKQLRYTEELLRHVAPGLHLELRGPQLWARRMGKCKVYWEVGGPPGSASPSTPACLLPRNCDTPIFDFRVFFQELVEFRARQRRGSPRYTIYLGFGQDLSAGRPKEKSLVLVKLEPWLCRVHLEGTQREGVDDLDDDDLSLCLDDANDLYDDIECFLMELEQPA
TTAGATTTCAGTTACGATTAGTGCTAG: 1.24 z-score
GACCAACTGGGGTATCGAGACGTGCTA: -0.232 z-score
GAAGGACTGGACTATCGGGACGTGCTA: -0.943 z-score
GACGGTTTCCTTCTCCTGACGTGCTAG: 2.66 z-score
GTAGGTCTCGGTTTCGGTTAGTGCTAG: 10.3 z-score
GACGAACTGAGTCTCGACACGTGCTAG: 0.231 z-score
TTATATTTTAATCACATATAGTGCTAG: 0.869 z-score
CACGATATCAGTTTCGAGACGTGCTAG: 4.33 z-score
AGGACCATCTCATATAAATAGGTGCTA: 0.462 z-score
TTCGATCTCAGTCTCGATTAGTGCTAG: 1.28 z-score
TTAGATTTCGGGTATCGGTTAGTGCTA: 1.55 z-score
TGCTGGTTTTGTGGTCTAATGTGCTAG: -0.267 z-score
TTAGGTATCCTAATCCTTTAGTGCTAG: 0.413 z-score
TTTTTTTTTTTTTTTGGAATGTGCTAG: 0.697 z-score
TCATATTTATAAATTATACTGTGCTAG: 0.873 z-score
TCAGATCTCAGTTTCGATTAGTGCTAG: 8.3 z-score

Some of these lines once more (series 1):
CCGTTGAG: -0.0863
CTTTTGCC: 0.0697
AGTGTGGA: 0.106
